Experimental data of several laboratories.
Compare with care: the assays were run in different laboratories. Numbers after ± are the reported error.
TNKS2: Poly [ADP-ribose] polymerase tankyrase-2 (TNKS2, Homo sapiens, UniProt Q9H2K2)
DRD3: D(3) dopamine receptor (DRD3, Homo sapiens, UniProt P35462)

Cc1ccc(Cn2nnc3c4ccc(F)cc4c(=O)[nH]c32)cc1
IC50 (TNKS2; inhibitor): 0.0339 µM

O=C(COc1ccc(Cl)cc1Cl)N/N=C/c1cc2c(s1)CCCC2
IC50 (1-deoxy-D-xylulose-5-phosphate synthase (dxs, Deinococcus radiodurans, UniProt Q9RUB5); inhibitor): 101 ± 15.1 µM

CCCCCn1nnc2c3ccc(F)cc3c(=O)[nH]c21
IC50 (TNKS2; inhibitor): 0.174 µM

CC[C@@H]1[C@H](F)C(=O)N[C@@H]1COc1nccc2cc(C(N)=O)c(OC)cc12
IC50 (Wee1-like protein kinase (WEE1, Homo sapiens, UniProt P30291); ATP-site probe binding, ActivX profiling; THP-1 cell lysate; Lys2 site): > 5 µM

Cc1ccc(NS(=O)(=O)c2c(C(=O)N3CCC(F)(F)C3)c(C)nn2C)cc1Cl
IC50 (DRD3; Go activation, antagonist, BRET; with: dopamine): > 100 µM

COc1c(Cl)cccc1Nc1c(-c2ccncc2OC[C@@H]2COCCO2)[nH]c2c1C(=O)NCC2
IC50 (Receptor tyrosine-protein kinase erbB-4 (ERBB4, Homo sapiens, UniProt Q15303); kinase activity, inhibitor, TR-FRET; median value, with: ATP 2 mM): 0.014 µM

Cc1ccc(NS(=O)(=O)c2c(C)[nH]c(C)c2C(=O)N2CC(F)(F)C(F)(F)C2)cc1Cl
IC50 (DRD3; β-arrestin recruitment, antagonist, PathHunter; with: dopamine EC80): > 100 µM

O=P(O)(O)Oc1cccc(OP(=O)(O)O)c1OP(=O)(O)O
IC50 (Phosphatidylinositol 3,4,5-trisphosphate 5-phosphatase 2 (INPPL1, Homo sapiens, UniProt O15357); enzyme activity, inhibitor, malachite green phosphate; 5 min, 30 °C, His-tagged enzyme, with: Ins(1,3,4,5)P4 100 µM): > 1000 µM

O=c1[nH]c2c(nnn2Cc2ccccc2C(F)(F)F)c2ccccc12
IC50 (TNKS2; ADP-ribosyltransferase activity, inhibitor, NAD+ consumption fluorescence): 0.708 µM

Cc1ccc(NS(=O)(=O)CCC(=O)N[C@@H](C)CC(=O)N2CCCC2)cc1Cl
IC50 (DRD3; Go activation, antagonist, BRET; with: dopamine): > 100 µM

Cc1ccc(Cn2nnc3c4ccc(C(F)(F)F)cc4c(=O)[nH]c32)cc1
IC50 (TNKS2; ADP-ribosyltransferase activity, inhibitor, NAD+ consumption fluorescence): > 10 µM

CC/C(=N\NC(=O)NCc1cccc(O)c1)c1ccc(O)c(C)c1O
IC50 (cAMP-dependent protein kinase catalytic subunit beta (PRKACB, Homo sapiens, UniProt P22694); kinase activity, inhibitor): 0.0122 ± 0.00095 µM

CC(C)Oc1c(NC(=O)c2ccc(NC(=O)[C@H](CC(N)=O)NC(=O)c3ccc(/N=N/c4ccc(N(C)C)cc4)cc3)cc2)ccc(C(=O)Nc2ccc(C(=O)O)cc2)c1O
IC50 (DNA gyrase (gyrA/gyrB, Escherichia coli, UniProt P0AES4+P0AES6); DNA supercoiling, inhibitor; 30 min, 37 °C, dark thermally adapted state, with: relaxed pUC19 DNA): 0.5 µM

N#CSc1cc(SC#N)c(N)nc1N
IC50 (Ubiquitin carboxyl-terminal hydrolase 8 (USP8, Homo sapiens, UniProt P40818)): 0.75 µM

CC(C)(C)NS(=O)(=O)c1cccc(C(=O)N2CC3(CCC4(CC4)CC3)c3cc(NS(C)(=O)=O)ccc32)c1
IC50 (Kinesin-like protein KIF18A (KIF18A, Homo sapiens, UniProt Q8NI77); inhibitor): 0.061 µM

CC[C@H](C)[C@H](NC(=O)[C@H](C)N)C(=O)N[C@@H](CCCCN)C(=O)N[C@H](C(=O)N[C@@H](CCCCN)C(=O)N[C@@H](CCCNC(=N)N)C(=O)N[C@@H](CCCCN)C(=O)N[C@@H](CCCNC(=N)N)C(=O)N[C@@H](CCCCN)C(=O)N[C@@H](CCCCN)C(=O)O)[C@@H](C)O
IC50 (Coagulation factor V, activated factor Va (F5, Homo sapiens, UniProt P12259); prothrombinase activity, inhibitor): 70 µM

COc1ccc2c(=O)[nH]c3c(nnn3Cc3ccc(C)cc3)c2c1
IC50 (TNKS2): 0.0933 µM

COc1ccc2c(c1)CN(C(=O)CCN1CCC(Cc3ccccc3)CC1)CC[S@@+]2[O-]
IC50 (A-type voltage-gated potassium channel KCND3 (KCND3, Homo sapiens, UniProt Q9UK17); Ito current, inhibitor, whole-cell patch clamp; stable cell line): 16.5 µM

O=C(O)CC(O)(CC(=O)O)C(=O)O
IC50 (Hypoxia-inducible factor 1-alpha inhibitor (HIF1AN, Homo sapiens, UniProt Q9NWT6, Q147A); enzyme activity, inhibitor; pH 7): 140 ± 1 µM

Cc1[nH]c(C)c(S(=O)(=O)Nc2ccc(B3OC(C)(C)C(C)(C)O3)cc2)c1C(=O)N1CCC(F)(F)C1
IC50 (DRD3; Go activation, antagonist, BRET; with: dopamine): > 100 µM

CC(C)N(CCC(=O)c1ccc2ccccc2c1)Cc1ccccc1
IC50 (Coagulation factor XIII A chain (F13A1, Homo sapiens, UniProt P00488); crosslinking activity; with: DTT): 10 ± 2 µM

Cc1c(C(=O)N(C)C)c(S(=O)(=O)Nc2ccc(C(F)(F)F)c(Cl)c2)c(C)n1C
IC50 (DRD3; Go activation, antagonist, BRET; with: dopamine): > 100 µM

CN1CCN(c2ccc(Nc3ncc4cc(C#N)c(=O)n(C5CCCC5)c4n3)cc2)CC1
IC50 (Tyrosine-protein kinase Mer (MERTK, Homo sapiens, UniProt Q12866)): 3.27 µM

Cc1[nH]c(C)c(S(=O)(=O)Nc2ccc(NS(C)(=O)=O)c(Cl)c2)c1C(=O)N1CCC(F)(F)C1
IC50 (DRD3; β-arrestin recruitment, antagonist, PathHunter; with: dopamine EC80): > 100 µM

O=C(CCCCCCC(=O)Nc1ccc(CCF)cc1)NO
IC50 (Histone deacetylase 1 (HDAC1, Homo sapiens, UniProt Q13547)): 0.056 µM

Cc1[nH]c(C)c(S(=O)(=O)Nc2c(Cl)ccc(Cl)c2Cl)c1C(=O)N1CCC(F)(F)C1
IC50 (DRD3; Go activation, antagonist, BRET; with: dopamine): > 100 µM

CNC(=O)CCOCCC(=O)N1CC2CCC(C1)C2NCc1cc(-c2cc(O)ccc2OC(F)(F)F)ccc1F (centres unmarked)
IC50 (Estrogen receptor (ESR1, Homo sapiens, UniProt P03372, Y537S)): ~1 µM

Cc1[nH]c(C)c(S(=O)(=O)Nc2ccc(C(F)(F)F)c(Cl)c2)c1C(=O)O
IC50 (DRD3; β-arrestin recruitment, antagonist, PathHunter; with: dopamine EC80): > 100 µM

CC1(C)CC[C@]2(C(=O)O)CC[C@]3(C)C(=CC[C@@H]4[C@@]5(C)CCC(=O)C(C)(C)[C@@H]5CC[C@]43C)[C@@H]2C1
IC50 (Nuclear receptor ROR-gamma (RORC, Homo sapiens, UniProt P51449); reporter gene, inhibitor, GAL4 dual-luciferase reporter; HEK293T; 24 h): 2.32 ± 0.22 µM

Some of these lines once more:
Cc1c(C(=O)N(C)C)c(S(=O)(=O)Nc2ccc(C(F)(F)F)c(Cl)c2)c(C)n1C
IC50 (DRD3; Go activation, antagonist, BRET; with: dopamine): > 100 µM

CNC(=O)CCOCCC(=O)N1CC2CCC(C1)C2NCc1cc(-c2cc(O)ccc2OC(F)(F)F)ccc1F (centres unmarked)
IC50 (Estrogen receptor (ESR1, Homo sapiens, UniProt P03372, Y537S)): ~1 µM
